Experimental data of several laboratories.
Values joined by “and” are separate records of one study, mostly repeats; a detail may differ. ± marks the error that the study gave.

SMILES	test	system	setting	scale	quantity	result
O=C(NCCS)c1cccc(C(=O)NCCS)c1	–	rat, Sprague-Dawley, male, plasma	intravenous, 1 mg/kg	–	clearance	14.3 mL/min/kg
C=CCc1cccc(/C=N/NC(=O)CN2CCN(Cc3ccccc3)CC2)c1O	–	healthy dog, plasma	IV constant rate infusion, dose not given, 48 h, time with plasma level ≥ 6-h concentration	–	duration above reference concentration	~36 h
O=C(OC(C(F)(F)F)C(F)(F)F)N1CCC(Cn2ccc3cccnc32)CC1	–	PBS	20 h, pH 7.4, 20 °C	–	solubility	< 1 µg/mL
O=c1[nH]c(Cc2ccccn2)nc2c1cnn2C1CCOCC1	–	healthy men, extensive metabolizers, plasma	oral, 200 mg single dose, tablet, median	–	Tmax	37.8 min
CC[C@H](C)[C@H](NC(=O)[C@H](CC(C)C)NC(=O)[C@H](Cc1c[nH]c2ccccc12)NC(=O)[C@H](CCC(N)=O)NC(=O)[C@@H](NC(=O)[C@H](Cc1ccccc1)NC(=O)[C@H](C)NC(=O)[C@H](CCCCNC(=O)COCCOCCNC(=O)COCCOCCNC(=O)CC[C@H](NC(=O)CCCCCCCCCCCCCCCCCCC(=O)O)C(=O)O)NC(=O)[C@H](CCC(N)=O)NC(=O)[C@H](C)NC(=O)[C@@H](NC(=O)[C@H](CCCCN)NC(=O)[C@H](CC(=O)O)NC(=O)[C@H](CC(C)C)NC(=O)C(C)(C)NC(=O)[C@@H](NC(=O)[C@H](CO)NC(=O)[C@H](Cc1ccc(O)cc1)NC(=O)[C@H](CC(=O)O)NC(=O)[C@H](CO)NC(=O)[C@@H](NC(=O)[C@H](Cc1ccccc1)NC(=O)[C@@H](NC(=O)CNC(=O)[C@H](CCC(=O)O)NC(=O)C(C)(C)NC(=O)[C@@H](N)Cc1ccc(O)cc1)[C@@H](C)O)[C@@H](C)O)[C@@H](C)CC)[C@@H](C)CC)C(C)C)C(=O)N[C@@H](C)C(=O)NCC(=O)NCC(=O)N1CCC[C@H]1C(=O)N[C@@H](CO)C(=O)N[C@@H](CO)C(=O)NCC(=O)N[C@@H](C)C(=O)N1CCC[C@H]1C(=O)N1CCC[C@H]1C(=O)N1CCC[C@H]1C(=O)N[C@@H](CO)C(N)=O	–	humans with end-stage renal disease	subcutaneous, 5 mg	baseline: ESRD over normal renal function	AUC∞ ratio	1.16
CCCCCOc1ccc(-c2cc(-c3ccc(C(=O)N[C@H]4C[C@@H](O)[C@@H](O)NC(=O)[C@@H]5[C@@H](O)[C@@H](C)CN5C(=O)[C@H]([C@H](O)CC(N)=O)NC(=O)[C@H]([C@H](O)[C@@H](O)c5ccc(O)c(OS(=O)(=O)O)c5)NC(=O)[C@@H]5C[C@@H](O)CN5C(=O)[C@H]([C@@H](C)O)NC4=O)cc3)no2)cc1	–	human paediatric patients 6 to sample C years, plasma	intravenous, 3 mg/kg once daily, day 7, mean	–	steady-state clearance	7.21 mL/min
CN[C@@](C)(C[18F])C(=O)O	–	SCID mouse SK-OV-3 xenograft, lung	30 min, post injection	–	tissue uptake	1.9 ± 0.3 %ID/g
CSCC[C@@H]1NC(=O)[C@H](CC(=O)O)NC(=O)CNC(=O)[C@H](CCCNC(=N)N)NC(=O)[C@H](C)NC(=O)[C@H](CCC(=O)O)NC(=O)[C@H](CCCNC(=N)N)NC(=O)[C@@H]2CSSC[C@@H]3NC(=O)[C@H](CO)NC(=O)[C@H]([C@@H](C)O)NC(=O)[C@@H]4CCCN4C(=O)[C@H](C)NC(=O)[C@H](Cc4c[nH]c5ccccc45)NC(=O)[C@H](CC(=O)O)NC(=O)CNC(=O)[C@H](CCCNC(=N)N)NC(=O)CNC(=O)[C@H](CCC(N)=O)NC(=O)[C@@H]4CCCN4C(=O)[C@@H](NC(=O)CNC(=O)C(C)F)CSSC[C@H](NC(=O)CNC(=O)[C@H](C)NC(=O)[C@H](CC(C)C)NC(=O)[C@H](CSSC[C@@H](C(=O)NCC(N)=O)NC(=O)[C@H]([C@@H](C)O)NC(=O)[C@H](CCCNC(=N)N)NC(=O)[C@@H]4CCCN4C1=O)NC(=O)[C@H](CC(=O)O)NC(=O)[C@H](CO)NC(=O)[C@H](CC(=O)O)NC(=O)[C@H](CCC(N)=O)NC(=O)[C@H](CO)NC3=O)C(=O)N[C@@H](C(C)C)C(=O)N2 (stereo partly shown) [fluorine-18 labelled]	–	nude mouse, U-87 MG xenograft, stomach	intravenous, 2.5 h, with: cyclo(RGDyK) co-injected	–	tissue uptake	0.29 ± 0.12 %ID/g
CC(=O)CO	–	human skin ex vivo	500 µL infinite dose, 5% m/V, ethanol/water vehicle	–	steady-state flux	170 ± 45.1 µg/cm²/h
CCCCCOc1ccc(-c2ccc(-c3ccc(C(=O)N[C@H]4C[C@@H](O)[C@@H](O)NC(=O)[C@@H]5[C@@H](O)[C@@H](C)CN5C(=O)[C@H]([C@@H](C)O)NC(=O)[C@H]([C@H](O)[C@@H](O)c5ccc(O)cc5)NC(=O)[C@@H]5C[C@@H](O)CN5C(=O)[C@H]([C@@H](C)O)NC4=O)cc3)cc2)cc1	–	human neonates, plasma	intravenous, 1.5 mg/kg/day after 3 mg/kg loading	–	steady-state volume of distribution	1.7 L/kg
Cc1sc2c(c1C)C(c1ccc(Cl)cc1)=N[C@@H](CC(=O)OC(C)(C)C)c1nnc(C)n1-2	LC-MS	Ringer's solution	50 ng/mL, time not given, plastic vessel, low-bind vial	–	recovery vs nominal	2.03% and 2.96%
Oc1ccc2ccc3c4ccccc4cc4ccc1c2c43	UPLC-AMS	human, plasma	oral, 25 ng of [14C]-BaP	–	AUC	1.88 ± 0.47 fg BaP equivalents·h/mL
CCCCCCCCCCCC[N+](C)(C)C	substrate depletion	human liver microsomes	0.5 µM, 0 to 3 h, 37 °C, with: NADPH	–	intrinsic clearance	0.127 mL/h/mg protein
CC(=O)N[C@H](CCCCNC(=O)C(C)F)C(=O)N[C@@H](CS)C(=O)N[C@@H](CS)C(=O)N[C@@H](CCC(=O)O)C(=O)N[C@@H](Cc1c[nH]cn1)C(=O)N[C@H](Cc1ccccc1)C(=O)N[C@@H](CCCNC(=N)N)C(=O)N[C@@H](Cc1c[nH]c2ccccc12)C(=O)N[C@@H](CS)C(=O)N[C@@H](CCCNC(=N)N)C(=O)N1CCC[C@H]1C(=O)N[C@H](C(N)=O)C(C)C (stereo partly shown) [fluorine-18 labelled]	–	C57BL/6 mice, male, B16-F10 tumour, muscle	intravenous, 1 h	–	tissue uptake	0.33 ± 0.11 %ID/g
COc1ccc(-c2cc(=O)c3c(OC)c(OC)c(OC)cc3o2)cc1	–	C57BL/6 mouse, male, colon	oral, 1% w/w in diet, 6 weeks, orange peel extract diet	baseline: content in orange peel	tissue to peel content ratio	0.198%
CC1N=C(c2ccccc2F)c2cc(Nc3ccccc3C#N)ccc2NC1=O (stereo not shown)	shake flask	PBS	24 h, pH 7.4	–	solubility	6.98 µM
[123I]c1cncc(OC[C@@H]2CCN2)c1	SPECT	human, frontal lobe	intravenous bolus, 7.35 mCi	baseline: tissue over plasma	tissue/plasma ratio	29.1
COc1ccc(S(=O)(=O)N2CCCCC2)cc1C	–	Opn4 knockout and wild-type mice	dose not given, rod/cone driven, low light	–	pupillary light reflex	no effect
CC(C)c1nc(N(C)S(C)(=O)=O)nc(-c2ccc(F)cc2)c1/C=C/[C@@H](O)C[C@@H](O)CC(=O)O	–	human, plasma	oral, dose not given, 14 day washout, carryover, one subject	baseline: Cmax	pre-dose concentration	< 5%
Oc1cccc2ccccc12	fish short-term reproduction	Oryzias latipes, female, water, flow-through	80.0 µg/L, end of exposure	–	body weight	702 ± 48 mg
CS(=O)(=O)CCCn1c(Cn2c(=O)n(CC(F)(F)F)c3ccncc32)cc2cc(Cl)ccc21	–	RSV-infected infants	concentration not given, low dose cohorts	–	patients with high aPTT	25%
COC(=O)N[C@H](C(=O)N1CCC[C@H]1C(=O)Nc1ccc([C@@H]2CC[C@@H](c3ccc(NC(=O)[C@@H]4CCCN4C(=O)[C@@H](NC(=O)OC)C(C)C)cc3)N2c2ccc(C(C)(C)C)cc2)cc1)C(C)C	–	healthy human volunteers, plasma	oral, dose not given, with: rosuvastatin plus 2D regimen	–	AUC(0-24)	897 ng·h/mL
